Results pooled from the literature.
Parts stem from different laboratories: compare values within a part only. Positions count from the first letter of the parent shown.

Block 1 — technique: RNA Bind-n-Seq; form: RNA; medium: in vitro; tested at: 200 nM; notes: whole 134-nt RNA, ends assumed; with: 150 mM LiCl; baseline: input library; direction: higher = stronger binding; each molecule: 7-deaza-guanosine replaces G
Target: Fragile X messenger ribonucleoprotein 1, C-terminal low-complexity region (Fmr1, Mus musculus, UniProt P35922)
For `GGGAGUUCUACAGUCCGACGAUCCUCAAGUCCUGUGCUACACAUCGUAUGUACCGAAUCGGGGAGGGGAGGAGGGGAAAGUAUUAUGUUACGCCGUUCGGAUCUGCACUUCCAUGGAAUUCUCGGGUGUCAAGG`, the log2 enrichment was -0.693.
With `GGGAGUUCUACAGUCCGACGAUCUGCUAGGACUUGAUGGAUCACUAGUUUUUCUGGUAAGUAAAACUAAUUUUUUUUUUUUUUUUUUGAGACGGAAUCUCACUCUGUCACCCAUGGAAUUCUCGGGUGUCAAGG` the log2 enrichment was 1.71.
For `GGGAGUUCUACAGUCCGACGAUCUCCUGUGCUACACAUCGUAUGUACCGAAUCGGGUUUUUGGGAAAAAAAGGGUUUUUGGGAAAGUAUUAUGUUACGCCGUUCGGAUCUGCAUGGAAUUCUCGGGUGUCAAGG`, the log2 enrichment was -2.42.
With `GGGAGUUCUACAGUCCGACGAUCUCCUGUGCUACACAUCGUAUGUACCGAAUCAAAUUUUUAAACCCCCAAACCCCCCCAAAAAAGUAUUAUGUUACGCCGUUCGGAUCUGCAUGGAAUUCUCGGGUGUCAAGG` the log2 enrichment was 1.77.
The log2 enrichment of `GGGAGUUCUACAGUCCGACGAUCUGGGAGGUGGAUUUUGUUUAUUUUUUUAGCUCAUUUCCAGGGGUGGGAAUUUUUUUUUAAUAUGUGUCAUGAAUAAAGUUGUUUUAGAAAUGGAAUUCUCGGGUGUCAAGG` is reported as 0.039.
For `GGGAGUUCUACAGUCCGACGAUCAAGUCCUGUGCUACACAUCGUAUGUACCGAAUCGGAAAAGGGGAAAAGGGGAAAAGGAAAGUAUUAUGUUACGCCGUUCGGAUCUGCACUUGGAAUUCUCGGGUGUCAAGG`, the log2 enrichment was 0.193.
`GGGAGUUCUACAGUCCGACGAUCGUCCUGUGCUACACAUCGUAUGUACCGAAUCGGGUUUUUUUGGGUUUUUUUGGGAGGGAAAGUAUUAUGUUACGCCGUUCGGAUCUGCACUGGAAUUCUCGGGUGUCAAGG` gave a log2 enrichment of 0.0301.
`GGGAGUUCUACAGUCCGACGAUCAAGUCCUGUGCUACACAUCGUAUGUACCGAAUCGGGUUUUUUUGGGAGGGAAAGGGAAAGUAUUAUGUUACGCCGUUCGGAUCUGCACUUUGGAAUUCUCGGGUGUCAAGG` has a log2 enrichment of -0.556.

Block 2 — target: CCND1, cyclin fold, Cln2 fusion (human); technique: yeast growth competition, sequencing; medium: yeast; notes: weak parent motif; baseline: not given; direction: higher = stronger binding
Starting sequence: REPIN1 docking peptide (human); QSFRGWVALVLHL
`QSFAGWVALVLHL [R4A]`: “normalised enrichment score” 0.0325.
For `QAFRGWVALVLHL [S2A]`, “normalised enrichment score” read 0.38.
`QSFRGWVALVLHA [L13A]`: “normalised enrichment score” 0.69.
`QSFRGWVAAVLHL [L9A]`: “normalised enrichment score” 0.0706.
For `QSFRAWVALVLHL [G5A]`, “normalised enrichment score” read 0.671.
Under “normalised enrichment score”, `QSFRGWVALVAHL [L11A]` is recorded as 1.02.

Block 3 — technique: DHFR PCA, dose-response; medium: yeast; notes: Hill fit, mean, not affinity; with: (+)-ABA, dose series; direction: lower = more sensitive
Target: ABI1, truncated, D143A, DHFR fusion (Arabidopsis thaliana, UniProt P49597)
Starting sequence: PYL1, truncated, DHFR fusion (Arabidopsis thaliana, UniProt Q8VZS8); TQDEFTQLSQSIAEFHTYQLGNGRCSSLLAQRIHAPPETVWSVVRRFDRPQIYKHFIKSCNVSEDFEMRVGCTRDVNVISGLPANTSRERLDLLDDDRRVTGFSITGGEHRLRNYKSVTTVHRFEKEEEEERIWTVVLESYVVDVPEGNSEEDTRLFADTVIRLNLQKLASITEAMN
For `G21S`, the ABA EC50 was 2.69 µM.
With `D159G` the ABA EC50 was 28.5 µM.
With `T1F` the ABA EC50 was 2.77 µM.
`N61G` has an ABA EC50 of 6.86 µM.
For `Y53N`, the ABA EC50 was 378 µM.
`I133T` gave an ABA EC50 of 1.47 µM.
For `D153E`, the ABA EC50 was 0.452 µM.
For `C72D`, the ABA EC50 was 3.66 µM.
The ABA EC50 of `V143Y` is reported as 485 µM.
For `E4T`, the ABA EC50 was 2.19 µM.
The ABA EC50 of `M176C` is reported as 4.63 µM.
`L91V` has an ABA EC50 of 517 µM.
`D95I` gave an ABA EC50 of 34.5 µM.
`F103M` gave an ABA EC50 of 42.3 µM.
With `Y53C` the ABA EC50 was 159 µM.
The ABA EC50 of `G148V` is reported as 132 µM.

Block 4 — technique: RNA Bind-n-Seq; form: RNA; medium: in vitro; tested at: not given; baseline: input RNA pool; direction: higher = stronger binding
Target: RING finger protein unkempt homolog, zinc fingers 1-6, GST-SBP tag (UNK, Homo sapiens, UniProt Q9C0B0, residues 30-357)
UniProt Q9C0B0, sequence (30-357, looked up): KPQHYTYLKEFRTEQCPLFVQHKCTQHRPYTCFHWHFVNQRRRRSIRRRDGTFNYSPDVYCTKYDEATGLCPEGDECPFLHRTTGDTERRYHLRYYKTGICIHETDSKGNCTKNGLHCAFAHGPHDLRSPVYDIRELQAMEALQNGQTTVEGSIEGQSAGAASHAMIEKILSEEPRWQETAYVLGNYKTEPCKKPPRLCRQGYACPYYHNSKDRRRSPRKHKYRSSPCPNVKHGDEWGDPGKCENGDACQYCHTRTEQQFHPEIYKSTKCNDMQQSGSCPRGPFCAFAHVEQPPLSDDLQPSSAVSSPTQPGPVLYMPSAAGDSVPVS
Notes: RNA with constant flanks, human and mouse sites, ends assumed
The bound/input enrichment of `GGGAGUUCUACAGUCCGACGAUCGUGGCAGUAGAUUCUACAGGCACGUACAUGGCCACCUCUGGUCUGGACCACCAGCUGAAGAUCUUUGACUUGCGAGGGACAUUCCAGCCCCUGAGUUCCCGGACCUUGCCCCAGGGAGCACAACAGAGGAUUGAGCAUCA` is reported as 0.333 ratio.
`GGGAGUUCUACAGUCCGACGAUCCUUAGACAGCUCGUUGAUCUUUUAACCCCUAAGAUCCAUCAGGAAGUAGAAGAACAGAAACUACAUAAAGCAGCUUGCUUGAUUCAAGCCUAUUGGAAAGGUUUCCAGACCAGAAAGAGACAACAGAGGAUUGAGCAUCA` has a bound/input enrichment of 0.207 ratio.
For `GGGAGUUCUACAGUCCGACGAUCGGAUCUAGCCUUGGAGGGUGGCUUAUGCUUCAUGCUGCAAUUGCACGACCAGAGAAGGUCGUGGCUCUUAUUGGUGUAGCUACAGCUGCAGAUACCUUAGUGACAAAGUUUAAUCAGCUUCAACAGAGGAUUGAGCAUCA`, the bound/input enrichment was 0.472 ratio.
`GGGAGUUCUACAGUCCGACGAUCAUAACUGAAGAUGUCUUGGAUUAUGCUGUGUCUAGCGUUUUAUUCCAGUCUGUAUGGUUACGCCUAAAGAGAGAAAAGUCUCAGCUAAUCUCAGGGAUGCAGAGAGAACGAGAAGAAGAACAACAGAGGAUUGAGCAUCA` gave a bound/input enrichment of 0.226 ratio.
For `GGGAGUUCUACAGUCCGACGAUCAAGACUGUUGACCUGAAGCCUGACUGGGGCAAGGGUUAUUCAAGAAAAGCAGCAGCCCUUGAAUUCCUAAACCGGUUUGAGGAAGCCAAACGAACCUAUGAAGAAGGUUUAAAACAUGAACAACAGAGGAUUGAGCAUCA`, the bound/input enrichment was 0.209 ratio.
With `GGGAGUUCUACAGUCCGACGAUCUGGAUCCAUCGAUGCUGUUCCUGUUGAUGAAAACCUGUUCACUGGCGAAGAUCUGGAUGAACUAGAAGAGGAAUUGAACACUCUUGACUUAGAAGAAUGAUGAGGAUGAAAACUAGGUCACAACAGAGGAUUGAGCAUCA` the bound/input enrichment was 0.572 ratio.
The bound/input enrichment of `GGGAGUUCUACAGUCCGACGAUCUUAGAACAGGAAAAUUCAGAGCUAGAAAGAGAAAAUAGGAAAUUUAAAAAAACUUUGGACAGCUUUAAAAACCUUACUUUUCAGUUAGAAUCUCUAGAAAAAGAGAAUUCCCAACUCGAUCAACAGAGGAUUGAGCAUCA` is reported as 5.43 ratio.
For `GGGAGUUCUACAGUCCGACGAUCCGCUAUCAACACUUCUUUGAGGCCUGCCGCCUCUUGCAGCAGAUGAUCGACAUUGCUAUUGAUGGUUUUCUUUUGACUCCAGUACAGAAGAUCUGCAAAUAUCCCUUACAAUUGGCCGAGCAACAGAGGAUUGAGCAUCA`, the bound/input enrichment was 0.181 ratio.

Block 5 — target: TEF, bZIP domain (human); technique: DHFR protein complementation; medium: yeast; baseline: wild-type JUN-FOS pair; direction: higher = stronger binding
Notes: single substitutions, most at no-binding floor
Starting sequence: JUN, bZIP domain (human); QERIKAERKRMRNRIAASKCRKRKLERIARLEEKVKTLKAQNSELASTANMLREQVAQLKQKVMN; partner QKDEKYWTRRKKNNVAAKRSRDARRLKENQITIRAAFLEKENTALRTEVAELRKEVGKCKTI
`E32H` has a binding fitness of -1.54 natural log.
`A57S` gave a binding fitness of -1.5 natural log.
For `M51V`, the binding fitness was -1.32 natural log.
With `E32K` the binding fitness was -1.51 natural log.
`K39F` gave a binding fitness of -1.56 natural log.
`L52E` has a binding fitness of -1.49 natural log.
The binding fitness of `M51W` is reported as -1.45 natural log.
`T37H` gave a binding fitness of -1.44 natural log.
The binding fitness of `T37F` is reported as -1.43 natural log.
`R53I` has a binding fitness of -1.48 natural log.
The binding fitness of `N42G` is reported as -1.47 natural log.
`K39N` has a binding fitness of -1.49 natural log.
With `E32C` the binding fitness was -1.39 natural log.
The binding fitness of `A29W` is reported as -1.21 natural log.
`S43T` gave a binding fitness of -1.43 natural log.
The binding fitness of `N42P` is reported as -1.52 natural log.
The binding fitness of `M51L` is reported as -1.51 natural log.
`L38H` gave a binding fitness of -1.57 natural log.

Repeated from above (block 1):
With `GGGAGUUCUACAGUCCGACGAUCUGCUAGGACUUGAUGGAUCACUAGUUUUUCUGGUAAGUAAAACUAAUUUUUUUUUUUUUUUUUUGAGACGGAAUCUCACUCUGUCACCCAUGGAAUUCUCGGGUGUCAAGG` the log2 enrichment was 1.71.
For `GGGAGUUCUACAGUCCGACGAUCUCCUGUGCUACACAUCGUAUGUACCGAAUCGGGUUUUUGGGAAAAAAAGGGUUUUUGGGAAAGUAUUAUGUUACGCCGUUCGGAUCUGCAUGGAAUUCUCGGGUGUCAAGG`, the log2 enrichment was -2.42.
With `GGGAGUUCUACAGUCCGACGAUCUCCUGUGCUACACAUCGUAUGUACCGAAUCAAAUUUUUAAACCCCCAAACCCCCCCAAAAAAGUAUUAUGUUACGCCGUUCGGAUCUGCAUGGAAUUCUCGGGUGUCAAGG` the log2 enrichment was 1.77.
The log2 enrichment of `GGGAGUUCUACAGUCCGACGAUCUGGGAGGUGGAUUUUGUUUAUUUUUUUAGCUCAUUUCCAGGGGUGGGAAUUUUUUUUUAAUAUGUGUCAUGAAUAAAGUUGUUUUAGAAAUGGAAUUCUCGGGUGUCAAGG` is reported as 0.039.
For `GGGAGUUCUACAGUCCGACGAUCAAGUCCUGUGCUACACAUCGUAUGUACCGAAUCGGAAAAGGGGAAAAGGGGAAAAGGAAAGUAUUAUGUUACGCCGUUCGGAUCUGCACUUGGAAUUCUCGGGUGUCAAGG`, the log2 enrichment was 0.193.
`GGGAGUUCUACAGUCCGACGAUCGUCCUGUGCUACACAUCGUAUGUACCGAAUCGGGUUUUUUUGGGUUUUUUUGGGAGGGAAAGUAUUAUGUUACGCCGUUCGGAUCUGCACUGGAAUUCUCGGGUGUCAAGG` gave a log2 enrichment of 0.0301.
